Published values pooled from the literature.
Compare with care: the assays were run in different laboratories. Values joined by “and” are separate records of one study, mostly repeats; a detail may differ. ± gives the spread as reported.

`Cc1ccc(S(=O)(=O)/C=C/C#N)cc1` has an inhibition of 80% (HeLa expressing Ub(G76V)-GFP; Ub(G76V)-GFP degradation, cycloheximide chase; 12 µM).
The viability of `NC(=O)[C@H](CCCN=C(N)CCl)NC(=O)c1ccccc1` is reported as 124% (HBL-1; 0.5 µM, 120 h).
`C#CCNS(=O)(=O)c1ccc(CCN(Cc2cc(Cl)ccc2OCCC)C(=O)c2ccc(F)cc2)cc1`: IL-6 level “no inhibition” (J774A.1; ELISA; concentration not given, 16 h, with: LPS 1 µg/mL).
For `CCn1cc(-c2cc(Cn3ccnc3)cc3c2CCN([C@H](c2cc(OC)ccn2)C2CC2)C3=O)c(C(F)(F)F)n1`, the EC50 was 2.31 µM (KYSE-70; cell growth, inhibitor; 120 h).
With `COc1cc(/C=C/C(=O)N2CCC=CC2=O)cc(OC)c1OC` the mRNA level was 75.8 ± 6.6% (MDA-MB-468; qRT-PCR, item: BACE2; 30 µM, 6 h; baseline: time zero).
`CCC/C(=C\C1=C(OC)C(=O)c2ccccc2C1=O)C(=O)N(CC)CC` has a GI50 of 2.88 µM (human brain microvascular endothelial; cell growth, alamarBlue; 48 h; baseline: DMSO).
The EC50 of `COc1cnc2cccc(N3CCc4c(cc(Cn5ccnc5C)cc4-c4cn(C)nc4C(F)(F)F)C3=O)c2c1` is reported as 12.5 µM (SNU-886; cell growth, inhibitor; 120 h).
`CCCCN1C[C@H](O)[C@@H](O)[C@@H](O)[C@H]1CO` gave an IC50 of 19.9 µM (sample BC patient fibroblasts; Gb3 level lowering, LC-MS/MS, item: Gb3 d18:1/16:0; 216 h).
Under “cells with nuclear RelA”, `CC[S+]([O-])c1nc(-c2cccc(OCc3ccccc3)c2)cc(C(F)(F)F)n1` (stereo not drawn) is recorded as 90.1% and 86.8% (HeLa Kyoto; RelA nuclear import, high content imaging; 1.58 µM, 3 h, with: 1 µM PMA, 60 min).
`Cc1c(C)c2c(c(C)c1O)CCC(C)(COc1ccc(CC3SC(=O)NC3=O)cc1)O2` (stereo not drawn) — result for “representative mode point of departure”: 0.0741 µM (HepG2; mitochondrial ROS; 1 h).
With `CC(=O)Nc1cccc(-n2c(=O)n(C3CC3)c(=O)c3c(Nc4ccc(I)cc4F)n(C)c(=O)c(C)c32)c1` the fractional effect was 0.477 (NCI-H2087 (BRAF L597V); 6.25 nM; baseline: DMSO).
For `Cc1cccc(-c2[nH]c(CNc3ccccc3F)nc2-c2ccc3ncnn3c2)n1`, the viability was 7% (bone marrow CD138+ myeloma cells; XTT; 2 µM, phenol red-free RPMI).
`COc1cc(Nc2ncc(F)c(Nc3ccc4c(n3)N(COP(=O)(O)O)C(=O)C(C)(C)O4)n2)cc(OC)c1OC` has an inhibition of 85.6% (BT-12; cell viability, MTT; 10 µM, 72 h).
`Cc1cc(Nc2ncc(Cl)c(Nc3ccccc3S(=O)(=O)C(C)C)n2)c(OC(C)C)cc1C1CCNCC1`: “log2 fold change” -2.29 (CLB-GE; phosphoproteomics LC-MS/MS, item: LPIN1 phosphorylation; 200 nM, 60 min; baseline: untreated).
The inhibition of `CCC(C)(C)C(=O)O[C@H]1C[C@@H](C)C=C2C=C[C@H](C)[C@H](CC[C@@H]3C[C@@H](O)CC(=O)O3)[C@H]21` is reported as 86.7% (BT-12; cell viability, MTT; 10 µM, 72 h).
For `Cn1c(Nc2nc3ccc(C(F)(F)F)cc3s2)nc2cc(C(=O)NCCOCCO)ccc21`, the fold change was 2.28 (SH-SY5Y; RNA-seq, item: SYT12 mRNA; 5 µM, 5 h; baseline: untreated cells).
`O=C(C[C@@H](C(F)F)n1ccc(F)n1)N1CCC(O)(Cn2cnc3c(cnn3-c3ccc(F)cc3)c2=O)CC1` — result for “cells in G1 phase”: 77.2% and 73.8% and 76% (CHP-212 resistant cells (pooled); PI flow cytometry; 1 µM, 24 h).
`Cc1c(C(=O)O)ccc2c3n(nc12)[C@@H]1[C@H](C3)N(CC2CC2)[C@@]2(C(=O)Nc3cc(Cl)ccc32)[C@H]1c1cccc(Cl)c1F` has an IC50 of 0.022 µM (UM-UC-11 (MDM2-amplified); cell proliferation, alamarBlue; 120 h).
The EC50 of `CCn1cc(-c2cc(Cn3ccoc3=N)cc3c2CCN([C@@H](C)c2cc(OC)ccn2)C3=O)c(C(F)(F)F)n1` is reported as 4.13 µM (HuTu80; cell growth, inhibitor; 120 h).
`COc1cc2c(NC3CCN(C)CC3)nc(N3CCCN(C)CC3)nc2cc1OCCCN(C)C` has a viability of 94.2% (HBL-1; 1 µM, 120 h).
For `COc1cc2nccc(Oc3ccc(NC(=O)C4(C(=O)Nc5ccc(F)cc5)CC4)cc3)c2cc1OC`, AMPK phosphorylation read “no effect” (A549 and H460 (LKB1-null); Western blot; concentration not given, 1 h).
`CCCN1CCN(c2ccc3[nH]c(-c4ccc5[nH]c(-c6ccc(C(F)(F)F)cc6)nc5c4)nc3c2)CC1` gave a growth percent of 4.6% (Hs-578T; SRB; 10 µM, 48 h).
The inhibition of `CC[C@H](C)C(=O)O[C@H]1C[C@@H](C)C=C2C=C[C@H](C)[C@H](CC[C@@H]3C[C@@H](O)CC(=O)O3)[C@H]21` is reported as 83.7% (BT-12; cell viability, MTT; 10 µM, 72 h).
For `Cn1cc(-c2ccc(-c3cncc(Cl)c3N3CCC4(CCNC4=O)CC3)cc2)cn1`, “log2 fold change” read 3.96 (COLO 205; gene expression, microarray, item: S100P mRNA; concentration not given, 6 h; baseline: untreated cells).
`C=C(C)[C@@H](CC=C(C)C)C[C@@]12C[C@@H](CC=C(C)C)C(C)(C)[C@@](CC=C(C)C)(C(=O)C(C(=O)c3ccc(O)c(O)c3)=C1O)C2=O` gave a viability of 76.2% (HBL-1; 0.5 µM, 120 h).
`CC(C)(c1ccc(O)cc1)c1ccc(O)cc1`: “G2 phase cells” 15 ± 6.49% (HepG2 spheroids; Hoechst flow cytometry; 1 µM, 96 h).
For `CCc1cc2c(N3CCN(c4nncs4)CC3)ncnc2s1`, the viability was 132% (HBL-1; 0.5 µM, 120 h).
For `CCC/N=C1\S/C(=C\c2ccc(OC[C@H](O)CO)c(Cl)c2)C(=O)N1c1ccccc1C`, the downregulated genes was 4070 genes (human primary astrocytes; single-cell RNA-seq; concentration not given, 48 h, with: cytokines; baseline: cytokines alone).
`COc1cc2ncnc(Nc3ccc(Oc4ccccc4)cc3)c2cc1OC` gave an inhibition of 18% (HeLa expressing Ub(G76V)-GFP; Ub(G76V)-GFP degradation, cycloheximide chase; 12 µM).
`O=C([C@@H](Cc1cccc(C(F)(F)F)c1)NS(=O)(=O)c1cc(F)c2c(c1)CCNC2)N1CCCC1` gave a viability of 122% (HBL-1; 0.5 µM, 120 h).
With `O=c1c(-c2ccc(F)cc2)c(-c2ccncc2)[nH]n1-c1ccc(Cl)cc1` the inhibition was 53% (HeLa expressing Ub(G76V)-GFP; Ub(G76V)-GFP degradation, cycloheximide chase; 12 µM).
`CC/C(=N\NC(=O)NCc1cccc(O)c1)c1ccc(O)c(C)c1O`: “LATS band intensity” 0.35 ± 0.24 (SK-OV-3; Western blot; 5 µM, 1 h, 3D gellan gum culture, unit not given; baseline: DMSO).
`Cc1cnc(Nc2ccc(OCCN3CCCC3)cc2)nc1Nc1cccc(S(=O)(=O)NC(C)(C)C)c1` gave a beat amplitude of 107% (iCell cardiomyocytes hiPSC-derived; impedance; concentration not given, 2 h; baseline: vehicle).
The inhibition of `Nc1ccc(-c2ccc3ncc4ccc(=O)n(-c5cccc(C(F)(F)F)c5)c4c3c2)cn1` is reported as 93.3% (BT-12; cell viability, MTT; 10 µM, 72 h).
For `CCOc1nc(-c2cccc(O)c2)cc(-c2cc3cc(Cl)ccc3nc2N2CCOCC2)c1C#N`, the EC50 was 0.029 ± 0.002 µM (WI-38; cell viability, MTT; 72 h).
The inhibition of `O=C1Nc2ccccc2/C1=C1/Nc2ccccc2/C1=N\OCC(O)CO` (stereo not drawn) is reported as 10% (HeLa expressing Ub(G76V)-GFP; Ub(G76V)-GFP degradation, cycloheximide chase; 12 µM).
`O=C(/C=C/C=C/C=C/C1CCCCC1)NC1=C[C@@](O)(/C=C/C=C/C=C/C(=O)NC2=C(O)CCC2=O)[C@@H]2O[C@@H]2C1=O` has a GI50 of 17.3 µM (ChaGo-K-1; cell growth, CellTiter-Glo; 78 h).
`CCOC(=O)Nc1cc(-c2ccc(C)c(NS(C)(=O)=O)c2)nn2c(C)nnc12` has a viability of 16.8% (HBL-1; 1 µM, 120 h).
`O=C(Nc1nc2ccccc2n1CCN1CCOCC1)c1cccc([N+](=O)[O-])c1` has an inhibition of 43% (HeLa expressing Ub(G76V)-GFP; Ub(G76V)-GFP degradation, inhibitor, cycloheximide chase; 12 µM).
`CCCc1cc(C)[nH]c(=O)c1CNC(=O)c1cc(-c2ccnc(N3CCN(C)CC3)c2)cc2c1cnn2C(C)C` gave a viability of 124% (HBL-1; 1 µM, 120 h).
`CC1(C)CCC(CN2CCN(c3ccc(C(=O)NS(=O)(=O)c4ccc(NCC5CCOCC5)c([N+](=O)[O-])c4)c(Oc4cnc5[nH]ccc5c4)c3)CC2)=C(c2ccc(Cl)cc2)C1` — result for “late apoptotic cells”: 2.3% (THP-1; annexin V/PI flow cytometry, item: annexin V+/PI+; 0.8 µM, 24 h).
`O=C1c2c(O)ccc(O)c2C(=O)c2c(NCCNCCO)ccc(NCCNCCO)c21` has an inhibition of 94.7% (BT-12; cell viability, MTT; 10 µM, 72 h).
`Cc1cc(=O)oc2cc(NC(=O)CCCCCCC(=O)NO)ccc12` has a viability of 106% (HBL-1; 0.1 µM, 120 h).
`O=C(c1cc2cc(O)ccc2[nH]1)c1cc2cc(O)ccc2[nH]1` gave an inhibition of 28% (HeLa expressing Ub(G76V)-GFP; Ub(G76V)-GFP degradation, inhibitor, cycloheximide chase; 12 µM).
For `O=C(/C=C\n1cnc(-c2cc(C(F)(F)F)cc(C(F)(F)F)c2)n1)NNc1cnccn1`, the inhibition was 89.2% (BT-12; cell viability, MTT; 10 µM, 72 h).

Some of these lines once more:
With `O=c1c(-c2ccc(F)cc2)c(-c2ccncc2)[nH]n1-c1ccc(Cl)cc1` the inhibition was 53% (HeLa expressing Ub(G76V)-GFP; Ub(G76V)-GFP degradation, cycloheximide chase; 12 µM).
`CC/C(=N\NC(=O)NCc1cccc(O)c1)c1ccc(O)c(C)c1O`: “LATS band intensity” 0.35 ± 0.24 (SK-OV-3; Western blot; 5 µM, 1 h, 3D gellan gum culture, unit not given; baseline: DMSO).
`Cc1cnc(Nc2ccc(OCCN3CCCC3)cc2)nc1Nc1cccc(S(=O)(=O)NC(C)(C)C)c1` gave a beat amplitude of 107% (iCell cardiomyocytes hiPSC-derived; impedance; concentration not given, 2 h; baseline: vehicle).
The inhibition of `Nc1ccc(-c2ccc3ncc4ccc(=O)n(-c5cccc(C(F)(F)F)c5)c4c3c2)cn1` is reported as 93.3% (BT-12; cell viability, MTT; 10 µM, 72 h).
